# Experimental data gathered from unrelated publications.
# A part holds a random share of what one study measured.

# Study 1 — technique: protein binding microarray; form: double-stranded DNA, one strand shown; matrix: in vitro; tested at: not given; baseline: not given; reading: higher = stronger binding
# Target: Histone acetyltransferase KAT6A, both winged helices, GST fusion (KAT6A, Homo sapiens, UniProt Q92794, residues 1-181)
# Setting: 8-mer, flanks averaged, mean of 2 arrays, mostly near background
# Construct (chain): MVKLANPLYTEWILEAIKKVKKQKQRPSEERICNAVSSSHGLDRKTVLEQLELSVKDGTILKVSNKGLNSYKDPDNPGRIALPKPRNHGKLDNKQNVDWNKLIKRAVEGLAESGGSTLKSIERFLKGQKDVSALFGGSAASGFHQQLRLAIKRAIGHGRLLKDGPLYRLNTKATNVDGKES
Oligonucleotide,E-score
GGAGTTGA,-0.0967
ATGCCAGG,-0.182
AACTTCCC,-0.0499
CGTCCGAA,0.202
AGACGAAT,-0.095
CTACCGAA,-0.0155
CAAACATG,-0.0476
CTGGTAAG,-0.0781
CCGAAAAC,0.139
AGTATGGG,-0.273
ATCAAACA,-0.111
TCCTATAA,-0.0651
CGCCGGAA,0.227
GTAGCGCA,0.244
ATGGACTG,-0.21
ACAAGTAA,-0.109
ACTCAGAG,-0.0611
CGCGGTGA,0.263
CCTACTGC,-0.138
GTACCCAA,-0.151
GAAAGAAA,-0.0812
AAGGACAC,-0.121
TGATTTAA,-0.0383
CGCCAGAA,-0.0692
TATAGTAA,0.0351

# Study 2 — technique: protein-binding microarray; form: double-stranded DNA, one strand shown; matrix: in vitro; tested at: 0.8 µM; setting: whole 60-bp probe, no competitor; reading: higher = stronger binding
# Target: Centromere-binding protein 1, full length, N-terminal tag (CBF1, Saccharomyces cerevisiae, UniProt P17106, residues 1-351)
# Sequence of UniProt P17106 (whole entry, looked up): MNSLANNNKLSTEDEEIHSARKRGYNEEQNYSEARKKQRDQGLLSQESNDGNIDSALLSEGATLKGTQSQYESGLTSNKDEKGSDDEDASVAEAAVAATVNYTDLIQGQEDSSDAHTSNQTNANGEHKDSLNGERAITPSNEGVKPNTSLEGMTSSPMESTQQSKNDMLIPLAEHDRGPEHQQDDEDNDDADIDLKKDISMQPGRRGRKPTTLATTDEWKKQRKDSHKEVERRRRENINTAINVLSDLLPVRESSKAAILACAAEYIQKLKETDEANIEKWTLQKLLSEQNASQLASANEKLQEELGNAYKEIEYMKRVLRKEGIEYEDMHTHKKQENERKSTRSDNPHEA
Oligonucleotide,fluorescence intensity
GAAAATTATCCAAGAAACGTGCGGCAGGATAATTAGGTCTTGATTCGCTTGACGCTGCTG,595 a.u.
CTACTGGTTACCCTGCATGTGATATGTGATTACTTCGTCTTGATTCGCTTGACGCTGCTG,2210 a.u.
CTAAAAAAAAAAAATAAGTCACGTGCACTCAGTTTCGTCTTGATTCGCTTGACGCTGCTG,30800 a.u.
GAATGAGGCTTTGCTGGTGACAATTCAGAAAATTAGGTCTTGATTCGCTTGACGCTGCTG,558 a.u.
CTAAATATGAGTCGTCACATTAAATGTATGAAGTTCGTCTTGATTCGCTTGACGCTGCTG,517 a.u.
GAATGTATATAACCGGGCATCACGAAGAGATCATAGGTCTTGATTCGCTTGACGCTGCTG,512 a.u.
CCTAACTACTATAGTCAGACCACATAGCTTCGTACAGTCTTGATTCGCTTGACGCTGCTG,571 a.u.
CTATTTTGTGACGGTGACGTACGATCTCTATACTTCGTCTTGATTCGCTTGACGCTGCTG,530 a.u.
CCTAACTACTATAGGCACGACCCATAGCTTCGTACAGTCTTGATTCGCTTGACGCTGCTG,522 a.u.
GAAATAAAAATTATGAACGTGTCTAGCTACATATAGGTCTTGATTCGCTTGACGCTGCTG,570 a.u.
GAAGTTTAGGAGTTACGCGTGCTACATTACTGTTAGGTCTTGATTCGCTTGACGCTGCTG,560 a.u.
GAATTTTTTTCTCATGATGTCATATCCTTTTTATAGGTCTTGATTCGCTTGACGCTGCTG,599 a.u.
CTATGGGTAGTTTATAACGTGTGTGCTCTCTCTTTCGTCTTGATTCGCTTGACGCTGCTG,521 a.u.
GAACCTTTCTCCGGTCACATGAAGCCTCTGTATTAGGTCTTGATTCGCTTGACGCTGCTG,1910 a.u.
TGTACGAAGCTATCTCTGATGTATATAGTAGTTAGGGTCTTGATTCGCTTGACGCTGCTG,529 a.u.
CTATGTACCGGGTGGCACGTCGTGCACAGAATCTTCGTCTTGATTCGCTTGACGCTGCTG,562 a.u.
CTACAATCGGAAAAGCACCTGAGGCAAACAAAATTCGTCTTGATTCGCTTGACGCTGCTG,521 a.u.
TGTACGAAGCTATCAAACATGACTATAGTAGTTAGGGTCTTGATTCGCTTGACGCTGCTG,529 a.u.
CTAAATTAGTTATGTCACGCTTACATTCACGCCTTCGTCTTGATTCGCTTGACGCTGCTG,925 a.u.
CTACAGAGCCCAATAAACGTGGTACTTGTCGAGTTCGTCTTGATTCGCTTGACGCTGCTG,545 a.u.
CTACCCGTGTAAAAAAAGGTGATGAAGCAAACATTCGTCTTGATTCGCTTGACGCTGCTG,574 a.u.
GAAATTATGTAGCATCACCCGGAAGAACTTTTGTAGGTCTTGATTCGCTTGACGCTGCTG,501 a.u.
CTAAGATTCTTGAGCCACCAGACGCTAAATAATTTCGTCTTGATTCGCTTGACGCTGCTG,533 a.u.
CTAAGCGTAATTGATTTCGTGATGGTTCGATCCTTCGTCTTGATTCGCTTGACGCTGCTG,538 a.u.
CTAGTGACTCGAGACCACGTGGAAAGATCCAACTTCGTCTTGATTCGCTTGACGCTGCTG,4490 a.u.

# Study 3 — technique: protein-binding microarray; form: double-stranded DNA, one strand shown; matrix: in vitro; tested at: 2200 nM top; setting: 60-bp whole probe; with: salmon DNA 0.4 mg/ml; baseline: random background probes; reading: higher = stronger binding; shared flanks, not repeated: GCCTAGCAC … GTCTTGATTCGCTTGACGCTGCTG
# Target: Interferon regulatory factor 7, full length, phosphomimetic (IRF7, Homo sapiens, UniProt Q92985, residues 1-503, S471D/S472D/S475D/S476D/S477D/S483D/S484D/S487D)
# Sequence of UniProt Q92985 (whole entry, unmodified, looked up): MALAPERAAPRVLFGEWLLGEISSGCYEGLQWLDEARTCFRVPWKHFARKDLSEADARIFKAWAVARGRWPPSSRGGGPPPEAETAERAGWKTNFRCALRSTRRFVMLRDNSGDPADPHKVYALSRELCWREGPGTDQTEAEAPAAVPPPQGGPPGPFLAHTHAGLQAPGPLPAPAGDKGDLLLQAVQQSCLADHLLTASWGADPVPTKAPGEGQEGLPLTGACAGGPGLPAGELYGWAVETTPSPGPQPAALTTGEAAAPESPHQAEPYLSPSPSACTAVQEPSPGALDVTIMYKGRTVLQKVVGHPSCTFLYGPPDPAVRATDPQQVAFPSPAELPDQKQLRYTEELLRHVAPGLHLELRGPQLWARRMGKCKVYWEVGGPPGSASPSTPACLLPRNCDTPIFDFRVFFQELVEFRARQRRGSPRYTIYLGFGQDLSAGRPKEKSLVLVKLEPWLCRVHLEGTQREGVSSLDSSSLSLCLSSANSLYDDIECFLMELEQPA
Oligonucleotide,fitted relative affinity
GACGGTATCTACTATCGGGACGTGCTA,0.228 z-score
TTAGGTTTCCTTTTGCTTTAGTGCTAG,5.3 z-score
TTAGATCTCAGTCTCGAGTAGTGCTAG,0.118 z-score
GACGGTATCGATTTCGGGACGTGCTAG,1.94 z-score
CAAAACATCATTGTCATATAGTGCTAG,-0.0158 z-score
ATTTTTATCAAATGTGGGATTGTGCTA,0.0718 z-score
CATTCTCTGCTTCTGTATGGGTGCTAG,2.1 z-score
CTTACTTCCCAATTGTCTTTGTGCTAG,3.09 z-score
TTAGGTATCTTTTTCCTTTAGTGCTAG,1.38 z-score
TTAGGTATCGGGACTGGGTTGGTGCTA,-0.291 z-score
TTAGGTTTCGACACTGGGTTCGTGCTA,2.39 z-score
TCAGACTTGATTTTGGTACTGTGCTAG,0.29 z-score
TTAGATATCAGACTGGTTTAGTGCTAG,0.0051 z-score
TTAGGACTGGGGACAGGGTTAGTGCTA,-0.8 z-score
GTAGGTCTCGGTCTCGGTTAGTGCTAG,0.534 z-score
TCATTTTTCATTGTTTTACTGTGCTAG,2.56 z-score
GACGAACAGAGTATCGAGACGTGCTAG,-0.346 z-score
TGAGATATCGGGTATCGATTAGTGCTA,0.0812 z-score
TTAGAACTGGGGTATCCATTAGTGCTA,-0.17 z-score
GACGGACTGCATTTCCTGACGTGCTAG,0.512 z-score

# Study 4 — technique: RNA Bind-n-Seq; form: RNA; matrix: in vitro; tested at: 365 nM; baseline: no-protein control; reading: higher = stronger binding
# Target: RNA binding protein fox-1 homolog 2, RRM domain, GST-SBP tag (RBFOX2, Homo sapiens, UniProt O43251-10, residues 100-194)
# Setting: natural RNA segment, single round, ends assumed
Oligonucleotide,RBNS enrichment (R)
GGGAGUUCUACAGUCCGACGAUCAAGUAAUUUCAGAAGAAAUUCUGCAAGCUUUUCAAAAUUGGACUUAAAAUCUAAUUCAAACUAAUAGAAUUAAUGGAAUAUGUAAAUAGAAACGUGUAUAUUUUUUAUGAUGGAAUUCUCGGGUGCCAA,1.26
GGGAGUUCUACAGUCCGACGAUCCAAGUGCCCCCUCACCUCUCCAGGUGCUCAUUGUAACCAUUUCUCACUAGUGUCAGGCCCCCAGUGGGACCACAUGCCACUGCCUGCACCUUUCGGCAGAGGAACCCCCAUGGAAUUCUCGGGUGCCAA,0.704
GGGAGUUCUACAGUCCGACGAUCGCUCAGCUGUGACUUUGGACUCUGGAGUGGAUGUCCUCAUGUUAGCAAACGUCCACUGUCCUUUCUCUAUCCCCCUCACUCAGCCUACACGUUACUCCAGCGCUACUCUUUGGAAUUCUCGGGUGCCAA,0.627
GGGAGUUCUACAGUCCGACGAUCGACAAGUGUUUGGGACUAAUUGAGAAACAAGCCAGCUUAGAUGGAAGCUGUGCUGUGUGACUAUUAGAACUAGGCAGGACCAGUGCUCCUCUUUUAUAGCUAGCAUGGGAUGGAAUUCUCGGGUGCCAA,5.61
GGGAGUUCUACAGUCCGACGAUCCUGUGGUGGGUGGCAUAACAAUAAAACUUACUAAGUGGUUAUAGGAUAAACAAACAGUUAUUAGGUCCUUUUACUUUUUUGUUUUGUUUCUAUCUUGUUUUUUUUUUUGUUGGAAUUCUCGGGUGCCAA,0.755
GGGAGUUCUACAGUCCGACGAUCAGUAGCCCUGUAAGGAGGGGCAGAGUGGCUGGUGCUACAGACGUCACAUGGGCUCUUUGGGGGUCUGUCUGCUGGGGCAGGAAUAAUCCCAGUUCUCUGACUCUCGCUCUUGGAAUUCUCGGGUGCCAA,0.653
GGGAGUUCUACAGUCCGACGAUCUUUCUUUUUUGGGUUUCUUUCUAGGAAAAUGAGAAGUGCAUGCAAGGGGCAGGAGAUGACCCUCCCCUAGGCUUUCAGCUUCAGGCAGCUUCUUCACAGCCUGUUCAGCCUGGAAUUCUCGGGUGCCAA,13.7
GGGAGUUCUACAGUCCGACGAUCGGUGUAGCCAGAAUAUUUUUUCCCUGCAAGCCCUAUGGGGUAGUAUCUAAUAAAUAUUCUGAGCAAGUGUGUGGGUUAUUUUUCAUCCAGGUCUAUUUCUAAUCUUCCCUUGGAAUUCUCGGGUGCCAA,0.549
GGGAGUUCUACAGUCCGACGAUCAGGGGCUGGGUCUGCUUCACCAAUCACCCAACCUGAGUCCCCCAGCUUUACCACAGAGCUGCCAACGUCCUUUCACUGUCUCCACACGAUGGCCCAGUAUCCUUGGUUGUUGGAAUUCUCGGGUGCCAA,0.526
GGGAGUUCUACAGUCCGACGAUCCCCAUCUGUGGGCCUCAUUCUGCCAAAGCUGGACCAAGGCUAACCUUUCUAAGCUCCCUAACUUGGGCCAGAAACCAAAGCUGAGCUUUUAACUUUCUCCCUCUAUGACAUGGAAUUCUCGGGUGCCAA,0.364
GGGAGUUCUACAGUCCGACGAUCCAAAAUUUGUCAUUUUGGGUGUCAACAGCUAAAUGGUCUGGUUUUUACCCCUGUUUUGCCUUUUUUGCAAUAAAAUUAUUUCCAAAAAACAUACAUUUCCUAUCAAUCAUUGGAAUUCUCGGGUGCCAA,0.771
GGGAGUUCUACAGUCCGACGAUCUCCGGGAAGAAGGAGAAGGAGAUGCCCAGUGUGGCCAAGGCUCUCGACACCAGGAGCUGUUGGGAGAAAGCAAUACGUUUGUGCAGAAUCUCUAUGUAUAUUCUAUUUUAUGGAAUUCUCGGGUGCCAA,0.646

# For quick reference, copied from above (study 2):
Oligonucleotide,fluorescence intensity
TGTACGAAGCTATCTCTGATGTATATAGTAGTTAGGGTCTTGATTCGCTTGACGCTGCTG,529 a.u.
GAAATAAAAATTATGAACGTGTCTAGCTACATATAGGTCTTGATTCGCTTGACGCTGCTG,570 a.u.
GAATTTTTTTCTCATGATGTCATATCCTTTTTATAGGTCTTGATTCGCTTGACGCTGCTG,599 a.u.
CTACCCGTGTAAAAAAAGGTGATGAAGCAAACATTCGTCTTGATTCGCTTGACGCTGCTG,574 a.u.
CTAAGATTCTTGAGCCACCAGACGCTAAATAATTTCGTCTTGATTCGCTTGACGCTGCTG,533 a.u.
CTAAATATGAGTCGTCACATTAAATGTATGAAGTTCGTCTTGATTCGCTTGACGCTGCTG,517 a.u.
CTAAGCGTAATTGATTTCGTGATGGTTCGATCCTTCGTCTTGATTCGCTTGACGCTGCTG,538 a.u.
